Experimental data collected from several papers.
Several values in a cell are separate wells, animals, samples, runs or records. ± gives the spread as reported.
Organism: Mycobacterium tuberculosis

SMILES	assay	system	conditions	quantity	value
O=C(C[N+]1=C(c2ccc(F)c(F)c2)c2cccn2CC1)c1ccc(F)cc1		K204	added: kanamycin	kanamycin MIC	≥ 10 µg/mL
CC(O)c1cc2[nH]c(=S)n(Cc3cccnc3)c(=O)c2cc1Cl (single isomer, unassigned)		H37Rv		MIC90	> 100 µM
Cc1ccc(C(=O)C[N+]2=C(c3ccc(F)c(F)c3)c3cccn3CC2)cc1		K204	added: kanamycin	kanamycin MIC	≥ 10 µg/mL
N#Cc1ccccc1Oc1ccc(Cn2cc(C3CCCCC3)nn2)cc1O	Alamar Blue		6 days plus 24 h, 37 °C	MIC	0.625 µg/mL
CO[C@H]1[C@H](O[C@H]([C@H]2O[C@@H](n3ccc(=O)[nH]c3=O)[C@H](O)[C@@H]2O)[C@H](NCCCNC(=O)[C@@H](NC(=O)[C@@H](NC(=O)N[C@H](C(=O)O)C(C)C)[C@@H]2CCNC(=N)N2)[C@@H](OC(=O)CCCCCCCCCCCCNC(=N)N)C(C)C)C(N)=O)O[C@H](CN)[C@H]1O	alamar blue	H37Rv		MIC90	0.08 ± 0.0021 µg/mL
Nc1nc(N)c2c(Cl)c(CNc3ccc(C(=O)O)cc3)ccc2n1	intracellular growth	THP-1		MIC	~0.05 µM
CC(=O)Oc1ccc2nc3ccc(=O)cc-3oc2c1		mc2 6206 PA-824-resistant ddn mutant	7 days	MIC90	> 256 µM
O=C(C[N+]1=C(c2ccc(F)c(F)c2)c2cccn2CC1)c1ccccc1		K204	added: kanamycin	kanamycin MIC	≥ 10 µg/mL
O=c1c2ccccc2[nH]c(=S)n1Cc1cccnc1		PptT conditional knock-down		MIC90	3.1 µM
Cc1ccccc1Oc1ccc(Cn2cc(C3CC3)nn2)cc1O	Alamar Blue		6 days plus 24 h, 37 °C	MIC	< 1 µg/mL and 0.78 µg/mL
